Published values of several laboratories.
A part holds a random share of what one study measured. Changes are numbered by the printed parent chain.

Set 1 — target: ATF7, bZIP domain (human); method: DHFR protein complementation; matrix: yeast; relative to: wild-type JUN-FOS pair; direction: higher = stronger binding
Setting: single substitutions, most at no-binding floor
Starting sequence: JUN, bZIP domain (human); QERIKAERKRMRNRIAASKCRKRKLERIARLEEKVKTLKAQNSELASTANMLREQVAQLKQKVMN; partner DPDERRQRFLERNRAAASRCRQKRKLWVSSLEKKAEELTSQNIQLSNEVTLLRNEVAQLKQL
Substitution | binding fitness [natural log]
N42K | -1.36
L38Y | -1.38
L45S | -1.52
M51L | -0.875
L38F | -1.5
M51F | -1.05
S43P | -1.43
T37P | -1.53
L38P | -1.5
K39S | -0.926
A57E | -0.864
V56W | -1.4
Q55M | -0.997
A40W | -1.23
R30H | -0.735
I28L | -0.992
R30G | -0.933
R53D | -1.44
V56Y | -1.46
L31Q | -1.38
E44Y | -1.16
A46V | -0.937
M51E | -0.853
A57P | -1.38
V35A | -1.31

Set 2 — method: DHFR PCA, deep sequencing; matrix: yeast; with: (+)-ABA 2500 µM; relative to: wild-type fitted maximum; direction: higher = stronger binding
Target: ABI1, truncated, D143A, DHFR fusion (Arabidopsis thaliana)
Setting: methotrexate growth selection, single substitutions
Starting sequence: PYL1, truncated, DHFR fusion (Arabidopsis thaliana); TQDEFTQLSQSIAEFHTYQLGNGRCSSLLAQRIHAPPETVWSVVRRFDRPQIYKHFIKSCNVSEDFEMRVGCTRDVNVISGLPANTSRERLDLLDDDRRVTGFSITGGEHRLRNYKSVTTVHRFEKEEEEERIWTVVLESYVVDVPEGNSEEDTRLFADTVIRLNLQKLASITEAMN
Substitution | relative binding score
K168H | 93%
L82E | 8.77%
R111W | 63.9%
I133K | 95.4%
V78Q | 54.5%
T106R | 98.5%
V43I | 96.7%
H55Y | 93%
R32T | 99.1%
Q31C | 73.9%
T160L | 97.6%
P37G | 82.7%
L82H | 44.1%
R24Q | 104%
I162D | -5.09%
P83A | 93.2%

Set 3 — target: CCNA2, cyclin fold, Cln2 fusion (human); method: yeast growth competition, sequencing; matrix: yeast; setting: strong parent motif; relative to: not given; direction: higher = stronger binding
Starting sequence: CDT1 docking peptide (human); PPARRRLRLSVDE; partner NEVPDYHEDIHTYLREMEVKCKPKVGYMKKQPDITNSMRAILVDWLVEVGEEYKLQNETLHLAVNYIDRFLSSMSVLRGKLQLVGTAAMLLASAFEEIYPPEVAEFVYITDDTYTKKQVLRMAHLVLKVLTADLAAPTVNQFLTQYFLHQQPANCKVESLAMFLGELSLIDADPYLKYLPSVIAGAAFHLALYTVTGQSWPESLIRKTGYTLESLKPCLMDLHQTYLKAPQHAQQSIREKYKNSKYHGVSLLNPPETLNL
Substitution | normalised enrichment score
L7A | 1.16
V11A | 4.86
R4A | 1.97
P2A | 4.79
R5K L9F | 3.43
R5A L7A | 0.102
R6A | 3.32
L9A | 0.669
L9F | 5.8

Set 4 — method: aptamer microarray, sandwich; molecule type: DNA with 2'F-ANA; matrix: in vitro; concentration: 200 nM; with: Cy3 exosite-II aptamer, 400 nM; direction: higher = stronger binding; oligonucleotide: GGTTGGTGTGGTTGG
Target: Prothrombin, mature alpha-thrombin (F2, Homo sapiens, UniProt P00734)
Setting: whole 15-mer aptamer, many near background
Modification | mean fluorescence intensity [a.u.]
2'F-ANA at 1 2 5 9 10 13 15 | 44.4
2'F-ANA at 4 8 10 11 12 14 | 57.7
2'F-ANA at 1 3 5 6 10 12 15 | 53.2
2'F-ANA at 2 6 8 10 11 14 | 101
2'F-ANA at 4 6 7 8 10 11 12 13 15 | 84.4
2'F-ANA at 1 2 6 9 10 | 56.2
2'F-ANA at 1 2 4 5 6 8 10 11 12 | 62.9
2'F-ANA at 2 13 | 376
2'F-ANA at 2 3 4 5 6 8 9 10 13 14 | 191
2'F-ANA at 2 5 6 8 11 14 15 | 51.2
2'F-ANA at 1 2 3 7 9 10 11 12 13 15 | 81.4
2'F-ANA at 1 2 10 15 | 56.4
2'F-ANA at 7 11 14 15 | 216
2'F-ANA at 5 6 7 9 10 11 | 48.1
2'F-ANA at 1 4 5 6 9 | 72.7
2'F-ANA at 1 2 3 6 8 11 13 15 | 177
2'F-ANA at 1 3 7 10 11 12 14 | 59.3
2'F-ANA at 3 4 7 10 | 334
2'F-ANA at 1 5 7 8 9 10 11 13 14 | 46.1
2'F-ANA at 1 5 6 9 10 12 13 15 | 47.1
